Assay results collected from several papers.
Every numbered part comes from another study and shows a few of its results, in no order.
Chain of UniProt Q9H792 (whole entry, looked up): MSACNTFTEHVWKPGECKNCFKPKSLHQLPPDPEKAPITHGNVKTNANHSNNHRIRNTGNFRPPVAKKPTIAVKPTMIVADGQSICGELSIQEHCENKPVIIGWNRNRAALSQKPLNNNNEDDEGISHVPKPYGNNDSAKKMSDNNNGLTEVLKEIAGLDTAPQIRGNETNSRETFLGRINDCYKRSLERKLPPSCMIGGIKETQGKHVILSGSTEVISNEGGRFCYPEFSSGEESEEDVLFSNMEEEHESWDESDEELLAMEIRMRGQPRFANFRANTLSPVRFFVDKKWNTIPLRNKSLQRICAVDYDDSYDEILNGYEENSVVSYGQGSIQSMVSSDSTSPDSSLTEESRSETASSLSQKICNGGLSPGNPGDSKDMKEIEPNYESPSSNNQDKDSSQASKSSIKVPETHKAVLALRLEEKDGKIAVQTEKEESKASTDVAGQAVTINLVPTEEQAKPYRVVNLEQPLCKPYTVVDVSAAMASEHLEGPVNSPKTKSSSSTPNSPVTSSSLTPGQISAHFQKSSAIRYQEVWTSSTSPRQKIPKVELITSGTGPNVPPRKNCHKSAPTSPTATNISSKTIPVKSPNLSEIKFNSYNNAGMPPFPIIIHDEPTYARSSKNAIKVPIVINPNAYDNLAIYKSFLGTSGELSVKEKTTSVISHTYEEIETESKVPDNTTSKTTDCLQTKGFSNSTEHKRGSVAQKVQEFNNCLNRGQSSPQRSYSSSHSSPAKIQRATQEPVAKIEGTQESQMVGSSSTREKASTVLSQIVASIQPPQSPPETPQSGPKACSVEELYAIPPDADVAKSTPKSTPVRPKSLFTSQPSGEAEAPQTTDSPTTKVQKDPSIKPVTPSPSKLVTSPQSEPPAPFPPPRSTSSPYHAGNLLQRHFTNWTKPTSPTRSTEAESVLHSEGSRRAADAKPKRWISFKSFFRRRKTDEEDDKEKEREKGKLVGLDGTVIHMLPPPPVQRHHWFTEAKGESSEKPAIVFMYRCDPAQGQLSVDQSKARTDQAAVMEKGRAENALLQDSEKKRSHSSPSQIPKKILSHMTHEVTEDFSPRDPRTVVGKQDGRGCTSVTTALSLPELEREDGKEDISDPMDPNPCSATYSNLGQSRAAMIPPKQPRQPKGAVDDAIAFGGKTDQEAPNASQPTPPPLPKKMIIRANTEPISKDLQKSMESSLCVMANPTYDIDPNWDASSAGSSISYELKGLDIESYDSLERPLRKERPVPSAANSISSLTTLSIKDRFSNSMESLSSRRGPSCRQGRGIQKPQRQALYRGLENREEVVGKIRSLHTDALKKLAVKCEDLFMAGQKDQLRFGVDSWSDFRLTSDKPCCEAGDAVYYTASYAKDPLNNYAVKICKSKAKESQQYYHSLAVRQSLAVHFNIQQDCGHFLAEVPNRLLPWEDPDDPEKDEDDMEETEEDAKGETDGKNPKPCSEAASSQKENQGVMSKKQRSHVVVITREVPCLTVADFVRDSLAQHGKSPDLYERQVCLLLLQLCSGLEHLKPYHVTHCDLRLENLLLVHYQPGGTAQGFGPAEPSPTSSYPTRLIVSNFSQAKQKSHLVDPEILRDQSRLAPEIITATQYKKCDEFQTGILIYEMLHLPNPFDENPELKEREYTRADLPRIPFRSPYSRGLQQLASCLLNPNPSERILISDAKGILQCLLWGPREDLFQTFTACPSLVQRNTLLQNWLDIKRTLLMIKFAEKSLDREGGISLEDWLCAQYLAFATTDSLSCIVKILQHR
Chain of UniProt Q9BXA7 (whole entry, looked up): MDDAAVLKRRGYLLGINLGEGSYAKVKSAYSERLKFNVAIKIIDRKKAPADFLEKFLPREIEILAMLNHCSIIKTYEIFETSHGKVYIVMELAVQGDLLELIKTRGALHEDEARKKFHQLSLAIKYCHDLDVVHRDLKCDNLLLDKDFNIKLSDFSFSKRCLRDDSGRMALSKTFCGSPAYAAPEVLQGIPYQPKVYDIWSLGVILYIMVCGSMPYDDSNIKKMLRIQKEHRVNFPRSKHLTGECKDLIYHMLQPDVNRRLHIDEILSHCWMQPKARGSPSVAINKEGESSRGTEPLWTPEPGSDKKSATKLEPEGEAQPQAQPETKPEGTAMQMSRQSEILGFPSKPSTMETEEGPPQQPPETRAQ
Chain of UniProt P53779 (whole entry, looked up): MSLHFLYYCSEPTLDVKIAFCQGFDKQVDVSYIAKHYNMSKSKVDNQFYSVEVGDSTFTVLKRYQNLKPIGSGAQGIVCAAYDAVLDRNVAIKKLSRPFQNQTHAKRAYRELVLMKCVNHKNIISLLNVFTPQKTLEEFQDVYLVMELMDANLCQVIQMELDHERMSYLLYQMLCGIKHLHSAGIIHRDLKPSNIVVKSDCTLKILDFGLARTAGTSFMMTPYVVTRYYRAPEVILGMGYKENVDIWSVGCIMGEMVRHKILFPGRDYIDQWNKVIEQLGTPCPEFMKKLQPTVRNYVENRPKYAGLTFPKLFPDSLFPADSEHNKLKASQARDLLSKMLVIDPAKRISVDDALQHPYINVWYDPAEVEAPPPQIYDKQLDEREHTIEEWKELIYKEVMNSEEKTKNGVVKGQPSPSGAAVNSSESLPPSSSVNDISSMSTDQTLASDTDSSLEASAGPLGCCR

Study 1
Target: High affinity nerve growth factor receptor (NTRK1, Homo sapiens, UniProt P04629)
Chain of UniProt P04629 (whole entry, looked up): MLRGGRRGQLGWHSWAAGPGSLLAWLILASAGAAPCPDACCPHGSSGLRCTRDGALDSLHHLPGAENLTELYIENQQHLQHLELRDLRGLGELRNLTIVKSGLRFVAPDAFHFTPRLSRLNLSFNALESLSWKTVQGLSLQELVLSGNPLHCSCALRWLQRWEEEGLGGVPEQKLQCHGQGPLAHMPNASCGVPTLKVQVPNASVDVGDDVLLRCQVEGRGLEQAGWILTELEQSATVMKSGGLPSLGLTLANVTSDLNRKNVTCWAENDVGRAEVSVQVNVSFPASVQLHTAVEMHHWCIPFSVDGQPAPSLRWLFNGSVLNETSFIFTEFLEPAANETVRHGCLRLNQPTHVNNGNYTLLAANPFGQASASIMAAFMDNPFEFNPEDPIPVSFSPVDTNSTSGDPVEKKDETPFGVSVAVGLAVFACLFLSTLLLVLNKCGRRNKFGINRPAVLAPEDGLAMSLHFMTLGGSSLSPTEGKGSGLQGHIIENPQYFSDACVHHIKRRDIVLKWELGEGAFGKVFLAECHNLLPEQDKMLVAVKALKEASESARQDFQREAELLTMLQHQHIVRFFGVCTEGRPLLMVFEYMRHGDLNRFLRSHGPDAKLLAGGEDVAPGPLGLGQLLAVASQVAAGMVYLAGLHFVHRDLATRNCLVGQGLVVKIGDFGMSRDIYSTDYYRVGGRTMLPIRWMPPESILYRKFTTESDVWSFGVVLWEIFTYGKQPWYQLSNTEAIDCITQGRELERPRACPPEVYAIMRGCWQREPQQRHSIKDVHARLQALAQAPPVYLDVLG
Effect on: enzyme activity
Mode: inhibitor
Tested at: 0.5 µM
Relative to: control
| Compound | remaining activity |
| --- | --- |
| c1ccc2c(-c3ccncc3)c[nH]c2c1 | 97% |
| Cc1cc(Nc2cc(N3CCN(C)CC3)nc(Sc3ccc(NC(=O)C4CC4)cc3)n2)[nH]n1 | 6.52% |
| CN(C)S(=O)(=O)c1ccc2c(c1)/C(=C/c1cc3c([nH]1)CCCC3)C(=O)N2 | 24.7% |
| COc1ccc2c(c1)c(C1=C(c3c[nH]c4ccccc34)C(=O)NC1=O)cn2CCCN(C)C | 83.1% |
| Cc1ccc(S(=O)(=O)/C=C/C#N)cc1 | 90.1% |
| Oc1cccc(-c2nc(N3CCOCC3)c3oc4ncccc4c3n2)c1 | 94.9% |
| O=C1Nc2ccc(Br)cc2/C1=C/c1cc2c([nH]1)CCCC2 | 51.8% |
| COc1ccc(COc2ccc(Cc3cnc(N)nc3N)cc2OC)cc1 | 51.3% |
| O=c1cc(N2CCOCC2)oc2c(-c3ccccc3)cccc12 | 95% |
| CCCCc1c(-c2ccc(OC)cc2)[nH]c2nccnc12 | 109% |
| O=C(c1cc2cc(O)ccc2[nH]1)c1cc2cc(O)ccc2[nH]1 | 57.2% |
| O=C1NC(=O)c2c1c1c3ccccc3[nH]c1n1cncc21 | 89.8% |

Study 2
Compound: O=C(Nc1cnn(-c2csc(C(=O)NC3COC3)c2)c1)Nc1ccccc1Cl
Tested at: 5 µM
| target | assay | scale | remaining activity [%] |
| --- | --- | --- | --- |
| Cyclin-dependent kinase 6, with cyclin D3 (CDK6, Homo sapiens, UniProt Q00534) | enzyme activity | relative to: untreated control | 109 |
| ERBB2 (Homo sapiens, UniProt P04626) | enzyme activity | relative to: untreated control | 101 |
| PEAK1 (Homo sapiens, UniProt Q9H792) | enzyme activity | relative to: untreated control | 91 |
| PKN2 (Homo sapiens, UniProt Q16513) | enzyme activity | relative to: untreated control | 109 |
| MAP3K21 (Homo sapiens, UniProt Q5TCX8) | enzyme activity | relative to: untreated control | 92.5 |
| MAP2K2 (Homo sapiens, UniProt P36507) | enzyme activity | relative to: untreated control | 91.6 |
| CDC42BPG (Homo sapiens, UniProt Q6DT37) | kinase activity, kinase panel profiling | – | 87 |

Study 3
Target: Beta-1 adrenergic receptor (ADRB1, Homo sapiens, UniProt P08588)
Chain of UniProt P08588 (whole entry, looked up): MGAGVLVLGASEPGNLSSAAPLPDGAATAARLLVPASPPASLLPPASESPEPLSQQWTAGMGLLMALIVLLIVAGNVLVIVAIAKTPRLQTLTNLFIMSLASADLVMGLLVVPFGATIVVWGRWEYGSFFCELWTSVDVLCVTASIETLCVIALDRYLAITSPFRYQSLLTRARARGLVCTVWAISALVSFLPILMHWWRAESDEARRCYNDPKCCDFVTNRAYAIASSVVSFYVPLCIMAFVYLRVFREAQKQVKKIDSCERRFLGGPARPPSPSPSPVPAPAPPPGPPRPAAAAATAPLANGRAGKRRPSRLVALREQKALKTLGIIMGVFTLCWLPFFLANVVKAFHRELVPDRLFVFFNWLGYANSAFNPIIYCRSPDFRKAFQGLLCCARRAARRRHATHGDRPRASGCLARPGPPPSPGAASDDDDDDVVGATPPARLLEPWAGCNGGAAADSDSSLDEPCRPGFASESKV
Mode: agonist
| SMILES | Emax [%] |
| --- | --- |
| COc1ccccc1N1CCN(CCCNc2c(C)c(=O)n(C)c(=O)n2C)CC1 | 82.7 |
| Oc1cc2c(c(Cl)c1O)CCNC[C@@H]2c1ccccc1 | 110 |
| COc1ccccc1N1CCN(CCCCNC(=O)c2ccc(-c3cscn3)cc2)CC1 | 75.6 |
| CC#CCn1cc2c3c(cccc31)[C@H](CC(C)C)N[C@H](C(=O)NCCC)C2 | 102 |
| CC(C(O)c1ccccc1)N(C)CCOC(c1ccccc1)c1ccccc1 (stereo not shown) | 44.4 |
| CC(C)(CO)NCC(O)c1ccccc1 (stereo not shown) | 90.7 |
| COc1ccccc1N1CCN(C(=O)C[C@@H]2O[C@H](CNC(=O)c3ccc(N(C)C)cc3)[C@@H](O)[C@H]2O)CC1 | 89 |

Study 4
SMILES: O=C1NC(c2ccccn2)Sc2ccccc21 (stereo not shown)
Effect on: cell-free assay
Technique: competition with immobilised ligand
Tested at: 1 µM
| target | remaining binding [%] |
| --- | --- |
| NEK1 (Homo sapiens, UniProt Q96PY6) | 100 |
| MAPK12 (Homo sapiens, UniProt P53778) | 51 |
| ERBB2 (Homo sapiens, UniProt P04626) | 71 |
| CASK (Homo sapiens, UniProt O14936) | 71 |
| Myosin-IIIa (MYO3A, Homo sapiens, UniProt Q8NEV4) | 85 |
| TSSK1B (Homo sapiens, UniProt Q9BXA7) | 66 |
| CAMKK1 (Homo sapiens, UniProt Q8N5S9) | 88 |
| MAPK10 (Homo sapiens, UniProt P53779) | 100 |
| PIK3CA (Homo sapiens, UniProt P42336, C420R) | 100 |
| AXL (Homo sapiens, UniProt P30530) | 92 |
| EPHB4 (Homo sapiens, UniProt P54760) | 100 |

A few entries again (study 1):
| Compound | remaining activity |
| --- | --- |
| CN(C)S(=O)(=O)c1ccc2c(c1)/C(=C/c1cc3c([nH]1)CCCC3)C(=O)N2 | 24.7% |
| O=c1cc(N2CCOCC2)oc2c(-c3ccccc3)cccc12 | 95% |
| Cc1cc(Nc2cc(N3CCN(C)CC3)nc(Sc3ccc(NC(=O)C4CC4)cc3)n2)[nH]n1 | 6.52% |
| Cc1ccc(S(=O)(=O)/C=C/C#N)cc1 | 90.1% |
